Published values of several laboratories.

SMILES	organism	test	test system	setting	MIC
CC[C@H](C)[C@@H]1NC(=O)[C@@H]([C@@H](C)O)NC(=O)CNC(=O)[C@H](CC(=O)O)NC(=O)CNC(=O)[C@H](CC(=O)O)NC(=O)CNC(=O)[C@H]2CCCCN2C(=O)[C@@H](NC(=O)[C@H](CC(=O)O)NC(=O)/C=C/CCCCCCCCCC(C)C)CNC(=O)[C@@H]2CCCN2C1=O	Staphylococcus aureus		MRSA USA300	added: Ca2+ 10 mM	2 µg/mL
Oc1c(Br)cc(Br)c2nc3cc(I)ccc3nc12	Enterococcus	broth microdilution	VRE 700221		0.78 µM
COCCNCc1cc(N(C)C)c2c(c1O)C(=O)C1=C(O)[C@]3(O)C(=O)C(C(N)=O)=C(O)[C@@H](N(C)C)[C@@H]3C[C@@H]1C2	Enterococcus faecalis	microbial growth, broth dilution			0.5 µg/mL
CCCCCCCCCCCCCCCCCCCCCCSCC1OC(OC2C(N)CC(N)C(OC3OC(CN)C(O)CC3N)C2O)C(O)C(N)C1O (centres unmarked)	Enterococcus		vancomycin-resistant		> 150 µg/mL
CC1C=CC=CC(C)C2C=CC3CC(C)(O)C(Cl)C(C)C3C2C(=O)C(Cl)(Cl)C(=O)C(C)C(=O)O1 (centres unmarked)	Corynebacterium glutamicum	broth microdilution	DSM 20300		0.2 to 0.4 µg/mL
Oc1c(Br)c(Cl)c(Br)c2nc3c(C(F)(F)F)cc(C(F)(F)F)cc3nc12	Enterococcus	broth microdilution	VRE 700221		3.13 µM
CCCCCCCCCCCCCCCCCCCCCCCCCCCCCCOC(=O)/C=C/c1ccc(O)cc1	Nakaseomyces glabratus	broth microdilution	clinical isolate	48 h, 37 °C	125 µg/mL
Oc1c(Br)cc(Br)c2nc3cc(C(F)(F)F)ccc3nc12	Enterococcus	broth microdilution	VRE 700221		0.39 µM
CC1C=CC=CC(C)C2C=CC3CC(C)(O)C(Br)C(C)C3C2C(=O)C(Cl)(Cl)C(=O)C(C)C(=O)O1 (centres unmarked)	Corynebacterium glutamicum	broth microdilution	DSM 20300		0.1 µg/mL
CN(C)c1cc(CNCc2ccc(O)cc2)c(O)c2c1C[C@H]1C[C@H]3[C@H](N(C)C)C(O)=C(C(N)=O)C(=O)[C@@]3(O)C(O)=C1C2=O	Enterococcus faecalis		JH2-2(pMV158), Tet L efflux		4 µg/mL
CCCCCCSCC1OC(OC2C(N)CC(N)C(OC3OC(CN)C(O)CC3N)C2O)C(O)C(N)C1O (centres unmarked)	Enterococcus		vancomycin-resistant		> 150 µg/mL
C[C@@H]1C(=O)O[C@@H](C)/C=C/C=C\[C@@H](C)[C@@H]2C=C[C@@H]3C[C@]4(C)O[C@@H]4[C@@H](C)[C@H]3[C@@H]2C(=O)C(Cl)(Cl)C1=O	Corynebacterium glutamicum	broth microdilution	DSM 20300		0.5 µg/mL
CN(C)c1cc(CNC(=O)C(C)(C)C)c(O)c2c1C[C@H]1C[C@H]3[C@H](N(C)C)C(O)=C(C(N)=O)C(=O)[C@@]3(O)C(O)=C1C2=O	Enterococcus faecalis	microbial growth, broth dilution			2 µg/mL
Cc1cc(O)cc2c1C(=O)c1c(cc3oc(=O)cc(-c4ccc(Cl)cc4)c3c1O)C2=O	Klebsiella aerogenes				0.25 µg/mL
CC(C=CC(O)=C1C(=O)CNC1=O)=CC(C)C1OC2(C)OC(C(=O)C(O)C2(C)O)C1C (centres unmarked)	Enterococcus		vancomycin-resistant		> 100 µM
CN(C)Cc1cc(N(C)C)c2c(c1O)C(=O)C1=C(O)[C@]3(O)C(=O)C(C(N)=O)=C(O)[C@@H](N(C)C)[C@@H]3C[C@@H]1C2	Enterococcus faecalis	microbial growth, broth dilution			2 µg/mL
CCOC1(C)CC2C=CC3C(C)C=CC=CC(C)OC(=O)C(C)C(=O)C(Cl)(Cl)C(=O)C3C2C(C)C1O (centres unmarked)	Corynebacterium glutamicum	broth microdilution	DSM 20300		> 3.2 µg/mL
CN(C)c1cc(CNC2CCCC2)c(O)c2c1C[C@H]1C[C@H]3[C@H](N(C)C)C(O)=C(C(N)=O)C(=O)[C@@]3(O)C(O)=C1C2=O	Enterococcus faecalis		JH2-2(pMV158), Tet L efflux		1 µg/mL
COC1C(C)C2C(C=CC3C(C)C=CC=CC(C)OC(=O)C(C)C(=O)C(Cl)(Cl)C(=O)C32)CC1(C)O (centres unmarked)	Corynebacterium glutamicum	broth microdilution	DSM 20300		> 6.4 µg/mL
CN(C)c1cc(CNC(=O)OCC(C)(C)C)c(O)c2c1C[C@H]1C[C@H]3[C@H](N(C)C)C(O)=C(C(N)=O)C(=O)[C@@]3(O)C(O)=C1C2=O	Enterococcus faecalis	microbial growth, broth dilution			4 µg/mL
CC1C=CC=CC(C)C2C=CC3CC(C)(Cl)C(O)C(C)C3C2C(=O)C(Cl)(Cl)C(=O)C(C)C(=O)O1 (centres unmarked)	Corynebacterium glutamicum	broth microdilution	DSM 20300		0.4 µg/mL
C=CCNCc1cc(N(C)C)c2c(c1O)C(=O)C1=C(O)[C@]3(O)C(=O)C(C(N)=O)=C(O)[C@@H](N(C)C)[C@@H]3C[C@@H]1C2	Enterococcus faecalis		JH2-2(pMV158), Tet L efflux		1 µg/mL
CC(/C=C/C(O)=C1/C(=O)CNC1=O)=C\[C@@H](C)[C@H]1O[C@@]2(C)O[C@H](C[C@@H]3O[C@@]32CO)[C@@H]1C	Enterococcus		vancomycin-resistant		> 100 µM
O=C(NN1C(=O)C(Cl)C1c1ccccc1Cl)c1ccc(-n2cccc2)cc1 (centres unmarked)	bacteria panel			all tested bacteria	1 µg/mL
CN(C)c1cc(CNCc2ccccc2)c(O)c2c1C[C@H]1C[C@H]3[C@H](N(C)C)C(O)=C(C(N)=O)C(=O)[C@@]3(O)C(O)=C1C2=O	Enterococcus faecalis	microbial growth, broth dilution			0.5 µg/mL
COC1(C)CC2C=CC3C(C)C=CC=CC(C)OC(=O)C(C)C(=O)C(Cl)(Cl)C(=O)C3C2C(C)C1O (centres unmarked)	Corynebacterium glutamicum	broth microdilution	DSM 20300		> 3.2 µg/mL

Some of these lines once more:
SMILES	organism	test	test system	setting	MIC
CC(/C=C/C(O)=C1/C(=O)CNC1=O)=C\[C@@H](C)[C@H]1O[C@@]2(C)O[C@H](C[C@@H]3O[C@@]32CO)[C@@H]1C	Enterococcus		vancomycin-resistant		> 100 µM
COC1(C)CC2C=CC3C(C)C=CC=CC(C)OC(=O)C(C)C(=O)C(Cl)(Cl)C(=O)C3C2C(C)C1O (centres unmarked)	Corynebacterium glutamicum	broth microdilution	DSM 20300		> 3.2 µg/mL
